Measurements gathered from unrelated publications.
Each line is one published result; not all experiments were run side by side. Numbers after ± are the reported error.
MCA2: Metacaspase-2 (MCA2, Trypanosoma brucei brucei, UniProt Q585F3)
Chain of UniProt Q585F3 (whole entry, looked up): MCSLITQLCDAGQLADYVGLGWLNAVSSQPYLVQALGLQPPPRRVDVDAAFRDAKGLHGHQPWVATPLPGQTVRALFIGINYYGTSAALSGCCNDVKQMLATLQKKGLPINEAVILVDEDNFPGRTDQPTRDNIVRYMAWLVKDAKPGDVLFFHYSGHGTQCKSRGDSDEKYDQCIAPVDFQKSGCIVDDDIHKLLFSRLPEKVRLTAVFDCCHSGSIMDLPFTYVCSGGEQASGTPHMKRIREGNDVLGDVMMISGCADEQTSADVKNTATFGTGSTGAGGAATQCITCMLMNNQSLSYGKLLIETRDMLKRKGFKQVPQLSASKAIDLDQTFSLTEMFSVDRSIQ
Genome polyprotein NS2B-NS3 protease: Genome polyprotein, NS2B-NS3 protease (ZIKV, UniProt A0A024B7W1)
Chain of UniProt A0A024B7W1 (whole entry, looked up): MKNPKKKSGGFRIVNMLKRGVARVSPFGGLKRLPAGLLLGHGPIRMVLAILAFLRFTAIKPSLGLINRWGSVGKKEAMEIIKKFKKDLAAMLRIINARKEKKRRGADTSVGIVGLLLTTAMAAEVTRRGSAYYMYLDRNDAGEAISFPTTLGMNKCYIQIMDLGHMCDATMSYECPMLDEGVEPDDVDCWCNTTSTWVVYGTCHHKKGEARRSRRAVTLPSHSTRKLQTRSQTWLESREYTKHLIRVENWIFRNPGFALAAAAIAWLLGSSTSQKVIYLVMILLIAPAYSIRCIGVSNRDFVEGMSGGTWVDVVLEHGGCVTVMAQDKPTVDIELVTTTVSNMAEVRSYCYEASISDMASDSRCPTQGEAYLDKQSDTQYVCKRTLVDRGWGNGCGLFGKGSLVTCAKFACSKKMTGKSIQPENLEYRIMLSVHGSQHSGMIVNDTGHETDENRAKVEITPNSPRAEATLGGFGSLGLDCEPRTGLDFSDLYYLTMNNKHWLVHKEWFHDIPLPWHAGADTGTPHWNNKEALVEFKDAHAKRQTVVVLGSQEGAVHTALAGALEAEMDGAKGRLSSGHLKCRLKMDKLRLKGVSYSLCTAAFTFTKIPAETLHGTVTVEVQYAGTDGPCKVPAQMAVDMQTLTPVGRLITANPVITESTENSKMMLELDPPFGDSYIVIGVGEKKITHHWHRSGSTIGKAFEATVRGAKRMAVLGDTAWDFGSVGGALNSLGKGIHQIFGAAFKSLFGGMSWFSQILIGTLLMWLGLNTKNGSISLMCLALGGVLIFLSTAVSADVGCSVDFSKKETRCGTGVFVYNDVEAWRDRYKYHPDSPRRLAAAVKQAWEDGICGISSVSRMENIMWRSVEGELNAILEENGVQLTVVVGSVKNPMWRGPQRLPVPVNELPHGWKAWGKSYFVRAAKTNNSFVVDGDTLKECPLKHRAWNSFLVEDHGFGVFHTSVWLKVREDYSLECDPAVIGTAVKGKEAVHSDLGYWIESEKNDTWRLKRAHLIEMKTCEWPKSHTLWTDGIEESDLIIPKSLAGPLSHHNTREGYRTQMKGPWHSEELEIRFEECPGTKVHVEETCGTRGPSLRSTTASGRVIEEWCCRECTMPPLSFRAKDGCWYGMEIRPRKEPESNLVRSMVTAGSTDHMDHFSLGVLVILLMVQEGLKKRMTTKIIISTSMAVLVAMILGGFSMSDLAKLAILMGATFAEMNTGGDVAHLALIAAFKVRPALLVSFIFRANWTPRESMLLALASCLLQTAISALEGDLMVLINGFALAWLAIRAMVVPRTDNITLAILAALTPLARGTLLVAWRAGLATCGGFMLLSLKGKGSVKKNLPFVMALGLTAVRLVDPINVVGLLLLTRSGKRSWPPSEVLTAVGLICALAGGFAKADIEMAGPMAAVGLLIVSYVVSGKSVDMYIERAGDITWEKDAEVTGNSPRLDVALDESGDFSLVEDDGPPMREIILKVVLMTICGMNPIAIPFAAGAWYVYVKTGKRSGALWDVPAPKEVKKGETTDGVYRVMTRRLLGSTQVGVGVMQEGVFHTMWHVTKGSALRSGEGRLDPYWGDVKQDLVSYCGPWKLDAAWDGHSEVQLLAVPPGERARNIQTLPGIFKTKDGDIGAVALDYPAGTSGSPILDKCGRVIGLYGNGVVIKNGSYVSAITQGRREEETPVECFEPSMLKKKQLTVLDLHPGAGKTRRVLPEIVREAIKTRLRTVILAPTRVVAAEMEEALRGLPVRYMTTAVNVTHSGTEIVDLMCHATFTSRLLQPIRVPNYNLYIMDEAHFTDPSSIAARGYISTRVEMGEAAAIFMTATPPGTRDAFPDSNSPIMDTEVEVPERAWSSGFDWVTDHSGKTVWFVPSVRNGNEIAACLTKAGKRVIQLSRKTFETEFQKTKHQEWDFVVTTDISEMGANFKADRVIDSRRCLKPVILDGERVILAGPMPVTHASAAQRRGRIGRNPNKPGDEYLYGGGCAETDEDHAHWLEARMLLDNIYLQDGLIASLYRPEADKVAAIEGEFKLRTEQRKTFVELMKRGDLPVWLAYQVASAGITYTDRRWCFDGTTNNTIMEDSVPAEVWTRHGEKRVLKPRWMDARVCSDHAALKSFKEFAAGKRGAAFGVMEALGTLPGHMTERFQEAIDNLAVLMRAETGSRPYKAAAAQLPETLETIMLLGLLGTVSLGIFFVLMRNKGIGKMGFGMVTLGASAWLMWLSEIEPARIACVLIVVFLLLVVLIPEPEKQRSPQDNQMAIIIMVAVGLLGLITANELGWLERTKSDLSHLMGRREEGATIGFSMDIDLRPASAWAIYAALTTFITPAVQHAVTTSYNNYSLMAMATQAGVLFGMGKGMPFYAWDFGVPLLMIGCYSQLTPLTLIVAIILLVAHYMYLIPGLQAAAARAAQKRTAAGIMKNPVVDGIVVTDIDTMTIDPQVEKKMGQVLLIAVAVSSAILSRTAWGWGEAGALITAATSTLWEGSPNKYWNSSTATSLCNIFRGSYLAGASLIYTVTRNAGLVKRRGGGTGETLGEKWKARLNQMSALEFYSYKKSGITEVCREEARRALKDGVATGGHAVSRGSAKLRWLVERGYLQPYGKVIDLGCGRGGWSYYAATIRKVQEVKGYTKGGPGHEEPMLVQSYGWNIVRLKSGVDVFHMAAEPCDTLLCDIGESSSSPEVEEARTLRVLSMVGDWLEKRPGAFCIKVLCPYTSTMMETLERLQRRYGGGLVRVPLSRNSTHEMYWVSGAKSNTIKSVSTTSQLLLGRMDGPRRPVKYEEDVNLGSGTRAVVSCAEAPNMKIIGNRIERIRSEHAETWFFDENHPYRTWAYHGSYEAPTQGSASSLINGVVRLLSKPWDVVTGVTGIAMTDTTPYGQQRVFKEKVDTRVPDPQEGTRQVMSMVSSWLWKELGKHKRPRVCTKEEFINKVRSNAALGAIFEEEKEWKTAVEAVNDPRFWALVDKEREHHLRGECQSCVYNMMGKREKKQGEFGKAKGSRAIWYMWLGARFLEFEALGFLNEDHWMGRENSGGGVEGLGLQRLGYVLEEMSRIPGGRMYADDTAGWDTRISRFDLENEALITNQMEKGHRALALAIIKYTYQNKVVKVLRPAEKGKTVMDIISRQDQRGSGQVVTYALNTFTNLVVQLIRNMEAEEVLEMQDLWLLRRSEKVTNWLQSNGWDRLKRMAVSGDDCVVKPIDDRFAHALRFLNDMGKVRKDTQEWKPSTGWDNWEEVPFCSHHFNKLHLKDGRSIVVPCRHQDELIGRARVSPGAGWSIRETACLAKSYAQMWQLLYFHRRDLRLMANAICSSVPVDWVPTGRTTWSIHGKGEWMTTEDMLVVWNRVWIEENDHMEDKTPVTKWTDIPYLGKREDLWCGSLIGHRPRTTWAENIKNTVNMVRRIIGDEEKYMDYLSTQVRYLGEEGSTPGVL
Oprm1: Mu-type opioid receptor (Oprm1, Rattus norvegicus, UniProt P33535)
Chain of UniProt P33535 (whole entry, looked up): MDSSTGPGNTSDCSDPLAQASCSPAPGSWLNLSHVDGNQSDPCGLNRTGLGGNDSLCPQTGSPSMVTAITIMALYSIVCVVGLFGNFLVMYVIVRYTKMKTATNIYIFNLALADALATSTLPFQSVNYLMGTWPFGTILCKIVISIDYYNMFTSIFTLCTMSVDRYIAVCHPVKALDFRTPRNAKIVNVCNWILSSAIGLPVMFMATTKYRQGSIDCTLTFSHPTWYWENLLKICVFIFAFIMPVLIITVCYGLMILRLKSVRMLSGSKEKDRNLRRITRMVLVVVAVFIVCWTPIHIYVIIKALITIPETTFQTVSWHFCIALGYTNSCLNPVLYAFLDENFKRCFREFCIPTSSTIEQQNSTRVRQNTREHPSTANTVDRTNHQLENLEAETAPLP
blaNDM-1: Metallo-beta-lactamase type 2 (blaNDM-1, Klebsiella pneumoniae, UniProt C7C422)
Chain of UniProt C7C422 (whole entry, looked up): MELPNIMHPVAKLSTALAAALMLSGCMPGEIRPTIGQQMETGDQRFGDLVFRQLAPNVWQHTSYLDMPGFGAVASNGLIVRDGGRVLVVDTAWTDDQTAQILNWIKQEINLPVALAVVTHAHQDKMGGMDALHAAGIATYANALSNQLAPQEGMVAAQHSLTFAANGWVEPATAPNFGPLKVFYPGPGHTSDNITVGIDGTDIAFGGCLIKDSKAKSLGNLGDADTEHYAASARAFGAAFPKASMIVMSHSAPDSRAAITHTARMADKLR
Chain of UniProt P37288 (whole entry, looked up): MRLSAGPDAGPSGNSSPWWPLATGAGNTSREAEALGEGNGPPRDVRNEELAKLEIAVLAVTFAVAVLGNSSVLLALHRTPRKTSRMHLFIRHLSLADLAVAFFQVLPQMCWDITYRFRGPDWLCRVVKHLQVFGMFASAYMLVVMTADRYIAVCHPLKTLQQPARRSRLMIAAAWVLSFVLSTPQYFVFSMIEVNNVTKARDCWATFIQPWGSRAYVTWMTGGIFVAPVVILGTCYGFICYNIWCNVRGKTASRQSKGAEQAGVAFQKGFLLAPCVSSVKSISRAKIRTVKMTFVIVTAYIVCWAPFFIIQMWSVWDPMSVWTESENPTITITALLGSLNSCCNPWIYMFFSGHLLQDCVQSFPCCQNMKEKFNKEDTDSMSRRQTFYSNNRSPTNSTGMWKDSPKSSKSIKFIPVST
Chain of UniProt P15090 (whole entry, looked up): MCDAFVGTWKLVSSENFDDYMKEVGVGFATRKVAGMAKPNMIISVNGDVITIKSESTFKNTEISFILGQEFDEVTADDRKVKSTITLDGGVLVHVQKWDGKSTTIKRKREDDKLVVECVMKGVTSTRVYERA

For `C[C@H](NC(=O)[C@H](CO)NC(=O)[C@H](CO)NC(=O)[C@H](CCCNC(=N)N)NC(=O)[C@H](Cc1ccccc1)NC(=O)[C@H](CCCCN)NC(=O)c1ccccc1N)C(=O)N[C@@H](CCC(N)=O)C(=O)NCCNc1ccc([N+](=O)[O-])cc1[N+](=O)[O-]`, the Ki was 27100 nM (MCA2; substrate; pH 7.4, 25 °C, added: 1 mM CaCl2).
The Ki of `CC(C)C[C@H](NC(=O)[C@H](CCCCN)NC(=O)[C@H](CCCCN)NC(=O)Cc1cccc(CNC(=O)CCNC(=N)N)c1)B(O)O` is reported as 18.4 ± 4 nM (Genome polyprotein NS2B-NS3 protease; inhibitor; Zika virus).
`C[C@H](NC(=O)[C@H](CCCCN)NC(=O)c1ccccc1N)C(=O)N[C@H](C(=O)N[C@@H](CO)C(=O)N[C@@H](CO)C(=O)N[C@@H](C)C(=O)N[C@@H](CCC(N)=O)C(=O)NCCNc1ccc([N+](=O)[O-])cc1[N+](=O)[O-])[C@@H](C)O` gave a Ki of 9400 nM (MCA2; enzyme activity, competitive inhibitor; Trypanosoma brucei; added: Z-FR-AMC substrate).
`CC(C)(COP(=O)(O)OP(=O)(O)OC[C@H]1O[C@@H](n2cnc3c(N)ncnc32)[C@H](O)[C@@H]1OP(=O)(O)O)[C@@H](O)C(=O)NCCC(=O)NCCSCC(=O)N[C@@H](CO)C(=O)NCC(=O)N[C@@H](CCCNC(=N)N)C(=O)N[C@@H](CCCNC(=N)N)C(=O)N[C@@H](CCCNC(=N)N)C(=O)N[C@@H](CCCNC(=N)N)C(=O)N[C@@H](CCCNC(=N)N)C(=O)N[C@@H](CCCNC(=N)N)C(N)=O` has a Ki of 337 nM (N-alpha-acetyltransferase 40 (NAA40, Homo sapiens, UniProt Q86UY6); enzyme activity, inhibitor, fluorescence).
For `N=C(N)NCCC[C@H]1NC(=O)[C@@H](Cc2ccc(O)cc2)NC(=O)[C@H](CCCCN)NC(=O)[C@H](Cc2ccccc2)NC1=O`, the Ki was 205 nM (Oprm1; ligand displacement, radioligand; cell membranes).
`CC(C)C[C@@H]1NC(=O)[C@@H]2CCCN2C(=O)[C@@H](CS)NC(=O)[C@H](Cc2ccc(O)cc2)NC(=O)[C@@H](CCCNC(=N)N)NC(=O)[C@@H]([C@H](C)O)NC(=O)C(C)(C)NC(=O)[C@@H]2CCCN2C1=O` gave a Ki of 19600 nM (blaNDM-1; enzyme activity, inhibitor; added: nitrocefin 1.5 µM).
The Ki of `O=C1c2ccccc2CCCN1CCCCN1CCN(c2cccc(Cl)c2Cl)CC1` is reported as 0.6 nM (5-hydroxytryptamine receptor 2B (HTR2B, Homo sapiens, UniProt P41595); ligand displacement, radioligand).
With `C[C@@H](Cc1ccsc1)NC(=O)NC[C@H](Cc1ccc(O)cc1)N(C)C` the Ki was 47000 nM (Alpha-2A adrenergic receptor (ADRA2A, Homo sapiens, UniProt P08913); cell-free assay).
The Ki of `CCCC[C@@H]1NC(=O)[C@@H](CCCCN)NC(=O)[C@H]2CCCN2C(=O)[C@H](CCC(=O)O)NC(=O)[C@@H]2C[C@@H](O)CN2C(=O)[C@H](Cc2ccccc2CN)NC(=O)[C@@H]2CCCN2C(=O)[C@@H](CS)NC1=O` is reported as 2760 nM (blaNDM-1; enzyme activity, inhibitor; added: nitrocefin 1.5 µM).
`CC[C@H](C)[C@H](NC(=O)[C@H](CCCNC(=N)N)NC(=O)[C@H](C)NC(=O)[C@H](CCCCN)NC(=O)c1ccccc1N)C(=O)N[C@@H](CO)C(=O)N[C@@H](C)C(=O)N[C@@H](CCC(N)=O)C(=O)NCCNc1ccc([N+](=O)[O-])cc1[N+](=O)[O-]` gave a Ki of 7800 nM (MCA2; enzyme activity, competitive inhibitor; Trypanosoma brucei; added: Z-FR-AMC substrate).
With `OB(O)c1ccc(C(F)(F)F)s1` the Ki was 179 nM (Uncharacterized hydrolase SAUSA300_2518 (Staphylococcus aureus, UniProt Q2FDS6); enzyme activity, inhibitor).
For `Cc1cc(O)cc(C)c1C[C@H](N)C(=O)N[C@H](CCCNC(=N)N)C(=O)N[C@@H](Cc1ccccc1)C(=O)N[C@@H](CCCCN)C(=O)N[C@@H]1CCCC[C@H]1NC(=O)[C@H](Cc1ccccc1)NC(=O)[C@H](CC1CCCCC1)NC[C@@H]1Cc2ccccc2CN1C(=O)[C@@H](N)Cc1ccc(O)cc1`, the Ki was 89.4 nM (Oprm1; ligand displacement, radioligand; cell membranes).
For `CC(C)C[C@H](NC(=O)[C@H](CCCCN)NC(=O)[C@H](CCCCN)NC(=O)Cc1cccc(CNC(=O)[C@@H](C)NC(=N)N)c1)C(N)=O`, the Ki was 275 ± 7 nM (Genome polyprotein NS2B-NS3 protease; inhibitor; Zika virus).
The Ki of `CC(C)C[C@H]1NC(=O)[C@@H]2CCCN2C(=O)[C@@H](CS)NC(=O)[C@@H](C(C)C)NC(=O)[C@H](CO)NC(=O)[C@H](CCC(=O)O)NC(=O)[C@@H](CCCNC(=N)N)NC(=O)[C@H](C)NC1=O` is reported as 415000 nM (blaNDM-1; enzyme activity, inhibitor; added: nitrocefin 1.5 µM).
`CC(C)[C@@H]1NC(=O)[C@H](Cc2ccccc2)NC(=O)[C@H](Cc2ccc(O)cc2)NC(=O)CCSSC[C@@H](C(=O)N2CCC[C@H]2C(=O)N[C@H](CCCNC(=N)N)C(=O)NCC(N)=O)NC(=O)[C@H](CC(N)=O)NC(=O)[C@H](C(C)C)NC(=O)[C@H](Cc2ccccc2)NC(=O)[C@H](Cc2ccc(O)cc2)NC(=O)CCSSC[C@@H](C(=O)N2CCC[C@H]2C(=O)N[C@H](CCCNC(=N)N)C(=O)NCC(N)=O)NC(=O)[C@H](CC(N)=O)NC1=O` has a Ki of 53.4 nM (Vasopressin V1a receptor (AVPR1A, Homo sapiens, UniProt P37288); ligand displacement, radioligand; cell membranes).
For `Cc1cc(O)cc(C)c1C[C@H](N)C(=O)N[C@H](CCCNC(=N)N)C(=O)N[C@@H](Cc1ccccc1)C(=O)N(C)CC(=O)N(C)Cc1cc(C(F)(F)F)cc(C(F)(F)F)c1`, the Ki was 1.21 ± 0.42 nM (Delta-type opioid receptor (OPRD1, Homo sapiens, UniProt P41143, L300A)).
`Cc1cc(O)cc(C)c1C[C@H](N)C(=O)N[C@H](CCCNC(=N)N)C(=O)N[C@@H](Cc1ccccc1)C(=O)N[C@@H](CCCCNC(=O)CN1CCN(CC(=O)O)CCN(CC(=O)O)CCN(CC(=O)O)CC1)C(N)=O` has a Ki of 18.7 nM (Delta-type opioid receptor (Oprd1, Mus musculus, UniProt P32300); ligand displacement, radioligand; cell membranes).
With `CC(=O)N[C@@H](CC(C)C)C(=O)N[C@@H](CC(C)C)C(=O)N[C@@H](CC(C)C)C(=O)N[C@@H](CC(C)C)C(=O)N[C@@H](CC(C)C)C(=O)N[C@@H](CCCN=C(N)N)C(=O)N[C@H](C(=O)N[C@@H](CCCCN)C(=O)N[C@@H](CCCN=C(N)N)C(N)=O)C(C)C` the Ki was 720 nM (Neuroendocrine convertase 2 (Homo sapiens, UniProt P16519); enzyme activity, inhibitor).
`C[C@H](NC(=O)[C@H](CCCCN)NC(=O)c1ccccc1N)C(=O)N[C@@H](CCCNC(=N)N)C(=O)N[C@@H](CO)C(=O)N[C@@H](Cc1ccc(O)cc1)C(=O)N[C@@H](C)C(=O)N[C@@H](CCC(N)=O)C(=O)NCCNc1ccc([N+](=O)[O-])cc1[N+](=O)[O-]` has a Ki of 6700 nM (MCA2; enzyme activity, competitive inhibitor; Trypanosoma brucei; added: Z-FR-AMC substrate).
The Ki of `CC1(C)NC(=O)[C@@H](CCC(=O)O)NC(=O)[C@H](CCC(=O)O)NC(=O)[C@H](CCCN)NC(=O)[C@H](C(c2ccccc2)c2ccccc2)NC(=O)[C@@H]2CCCN2C(=O)[C@H]2CCCN2C(=O)[C@H](CC(N)=O)NC1=O` is reported as 98100 nM (blaNDM-1; enzyme activity, inhibitor; added: nitrocefin 1.5 µM).
`O=S(=O)(O)C(F)(F)C(F)(F)C(F)(F)C(F)(F)C(F)(F)C(F)(F)C(F)(F)C(F)(F)F` has a Ki of 4500 nM (Fatty acid-binding protein, adipocyte (FABP4, Homo sapiens, UniProt P15090); ligand displacement, fluorescence).

Some of these lines once more:
`CC(C)[C@@H]1NC(=O)[C@H](Cc2ccccc2)NC(=O)[C@H](Cc2ccc(O)cc2)NC(=O)CCSSC[C@@H](C(=O)N2CCC[C@H]2C(=O)N[C@H](CCCNC(=N)N)C(=O)NCC(N)=O)NC(=O)[C@H](CC(N)=O)NC(=O)[C@H](C(C)C)NC(=O)[C@H](Cc2ccccc2)NC(=O)[C@H](Cc2ccc(O)cc2)NC(=O)CCSSC[C@@H](C(=O)N2CCC[C@H]2C(=O)N[C@H](CCCNC(=N)N)C(=O)NCC(N)=O)NC(=O)[C@H](CC(N)=O)NC1=O` has a Ki of 53.4 nM (Vasopressin V1a receptor (AVPR1A, Homo sapiens, UniProt P37288); ligand displacement, radioligand; cell membranes).
For `Cc1cc(O)cc(C)c1C[C@H](N)C(=O)N[C@H](CCCNC(=N)N)C(=O)N[C@@H](Cc1ccccc1)C(=O)N(C)CC(=O)N(C)Cc1cc(C(F)(F)F)cc(C(F)(F)F)c1`, the Ki was 1.21 ± 0.42 nM (Delta-type opioid receptor (OPRD1, Homo sapiens, UniProt P41143, L300A)).
